# Assay results from different studies.
# Parts stem from different laboratories: compare values within a part only. Changes are numbered by the printed parent chain.

# Sample 1
# Target: RNA binding protein fox-1 homolog 2, RRM domain, GST-SBP tag (RBFOX2, Homo sapiens, UniProt O43251-10, residues 100-194)
# Method: RNA Bind-n-Seq
# Molecule type: RNA
# Medium: in vitro
# Concentration: 365 nM
# Notes: natural RNA segment, single round, ends assumed
# Reference: no-protein control
# Reading: higher = stronger binding
# All sequences stand within: GGGAGUUCUACAGUCCGACGAUC … UGGAAUUCUCGGGUGCCAA
# Construct (chain): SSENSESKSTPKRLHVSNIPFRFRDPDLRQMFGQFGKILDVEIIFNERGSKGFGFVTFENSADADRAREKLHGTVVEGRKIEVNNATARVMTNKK
Strand,RBNS enrichment (R)
UACUGGCCAAAAUCAAUGUUAUUCCAUAUUUUAUUUUUUCUAUUAAAUUAACCUAAGUUCCUGUUUAUUUGAUCUGUUCAUACCCACGUAUAAACUUCUCUGAAAGGGUA,1.17
CCCUUAGCCAUUCCCACCCAUCUGUAACAAUGAUCUGGGAGCUCGGCUCCAAGCAUCCCUGGUUACCUGUUCAGCCUGCAAGGCCGAUGUAUAGUGUACCUCAAUUCACA,0.329
AAACCCUUUGAAUGAAAUUGUGGCACAAAAUCUGUUCAGGUUGGUGUACCGUGUAAAGUGGGGAUGGGGUAAAAGUGGUUAACGUACUGUUGGAUCAACAAAUAAAGGUU,1.18
UUCCCUUCAGUUAAAGGGUUUCUUUUUCAGAGGGCCUAGACUGUGCUGACCUUGUGUGACCAGAGAUUUAAAGAUGAAAAAAACAAUAAAUGUGUUUACUUCUGCACCAC,0.235
AGGCCCUUCUGAGCGGAACCGUCCUGGAGAGAGCCUGCCCUCGUUUCCAGGCUGCAGCCGUAACGCACUUUCUCCCAGGCUGAGGGCGGGUGUUCUGGGGUGUCUGCCCU,0.266
CCAACUUCUCAGGCUGUCUUGCCCAAGAUGCAGGACCCCUACCUAGCCCACCUCCCAAGGCACCUGUGCCUCCACUCAGGAUGUCUUGCUCUGACUGGCUCCCCUUCCAG,0.401
CAGGUUAUUGAUAAGGUCAAGGGUUACUGUAAUGCCCAUUCCGAUAACUUCUAUAAAAAUAUCAUCCUGUCAGAUGCCUUCAGCCACAGCACAAAGUUUUAAUGUCAUUG,0.632
AUGCACAGUGACCCAGCUGAGUGGCAGGUGGUUGGAGGCAAGGACAUUUAUGUGGGCCACAUACCCAAACUUCCUGCCAUGUAAAGGCGAGUGAUUGUGAAAGCACCUCU,0.249

# Sample 2
# Target: CREB3, bZIP domain (human)
# Method: DHFR protein complementation
# Medium: yeast
# Notes: single substitutions, most at no-binding floor
# Reference: wild-type JUN-FOS pair
# Reading: higher = stronger binding
# Parent: JUN, bZIP domain (human); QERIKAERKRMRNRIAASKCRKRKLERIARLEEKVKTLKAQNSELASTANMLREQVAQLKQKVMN; partner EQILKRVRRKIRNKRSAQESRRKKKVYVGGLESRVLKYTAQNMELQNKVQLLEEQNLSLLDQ
Substitution,binding fitness [natural log]
T48R,-1.28
A29L,-1.51
E32F,-1.39
Q41S,-1.5
N42A,-1.47
L31S,-1.45
E44Q,-1.32
K39G,-1.43
K34A,-1.29
L45F,-1.44
V35Y,-1.54
E33V,-1.43
L52F,-1.52
V35M,-1.4
E44L,-1.46
Q55D,-1.49
K36I,-1.33
K36N,-1.33
I28E,-1.47
L31F,-1.58
L31M,-1.46

# Sample 3
# Target: CCNB1, cyclin fold, Cln2 fusion (human)
# Method: yeast growth competition, sequencing
# Medium: yeast
# Notes: strong parent motif
# Reference: not given
# Reading: higher = stronger binding
# Parent: PKN2 docking peptide (human); VSAVRKLDFSDTM
Substitution,normalised enrichment score
D11N,2.92
A3W,3.6
S10M,2.77
A3T,3.59
F9A,-0.205
F9D,-0.102
D8E,3.43
D8Y,2.83
L7N,-0.0426
D11H,2.05
D11G,2.88
F9P,0.05
S2Y,3.49
D8P,0.846
A3L,4.13
V4C,2.65
S2I,2.64
S2M,2.87
S10H,3.29
A3S,1.44
D11F,1.82
R5T,1.56
R5W,0.326
D8H,2.69
D11T,2.7

# Sample 4
# Target: Interferon regulatory factor 7, full length, phosphomimetic (IRF7, Homo sapiens, UniProt Q92985, residues 1-503, S101K/S471D/S472D/S475D/S476D/S477D/S483D/S484D/S487D)
# Method: protein-binding microarray
# Molecule type: double-stranded DNA, one strand shown
# Medium: in vitro
# Concentration: 250 nM
# Notes: 60-bp whole probe
# Together with: salmon DNA 0.4 mg/ml
# Reference: random background probes
# Reading: higher = stronger binding
# All sequences stand within: GCCTAGCAC … GTCTTGATTCGCTTGACGCTGCTG
# Target sequence (chain): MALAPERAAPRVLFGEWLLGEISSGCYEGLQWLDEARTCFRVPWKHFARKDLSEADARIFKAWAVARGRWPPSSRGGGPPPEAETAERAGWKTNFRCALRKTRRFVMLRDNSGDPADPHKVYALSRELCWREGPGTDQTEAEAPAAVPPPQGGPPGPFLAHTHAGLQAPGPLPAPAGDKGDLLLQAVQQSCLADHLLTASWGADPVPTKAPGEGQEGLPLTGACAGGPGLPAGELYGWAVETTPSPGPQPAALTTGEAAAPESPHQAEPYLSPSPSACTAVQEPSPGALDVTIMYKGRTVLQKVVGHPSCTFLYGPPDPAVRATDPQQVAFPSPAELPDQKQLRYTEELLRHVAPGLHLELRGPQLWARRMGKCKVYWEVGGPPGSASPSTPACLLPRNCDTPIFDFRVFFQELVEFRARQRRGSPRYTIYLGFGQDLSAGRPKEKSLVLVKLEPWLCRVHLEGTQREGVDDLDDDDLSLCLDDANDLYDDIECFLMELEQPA
Strand,log fluorescence [z-score]
TCAACACTCTTCTTTTGCACTGTGCTA,0.269
GACGAACTGAGTCTCGAGTCGTGCTAG,1.57
TTAGGTTTTCTTTCCCTTTAGTGCTAG,2.26
GACGGACTGGGTATCGGGACGTGCTAG,-0.134
TTAGGTATCCTTATCCTTTCGTGCTAG,0.312
TTACATCTCAGTCTCGATTAGTGCTAG,1.64
GACGATATCGGGTTTCGGGACGTGCTA,2.14
CCATACTTCCCACTGGTCTTGTGCTAG,1.11
TTAGGTCTCCTTCTGCTTTAGTGCTAG,-0.0131
TTAGGTTTCGACTTTCGGTAAGTGCTA,11.3
TTAGGTTTCGGTTCGGGTTAGTGCTAG,13
TTCTGAATGCCCTTCCATCACGTGCTA,-0.402
GCAAGAACAGCTGGTGGGCAGTGCTAG,-0.843
AGCACTCCAGAGGCAGAGGCGTGCTAG,-0.999
GACGCACTGCTTCTCCTGACGTGCTAG,0.237
CTTTTTTTCCGAGTGAGTAAGTGCTAG,2.26
GACGGTTTCGGAACTGGGGACGTGCTA,6.35
TCATGTACGTCGTTTCCCACTGTGCTA,0.6
CCAGCTCTGATGTTGGGAAAGTGCTAG,-0.552

# Excerpt of the above (sample 4):
Strand,log fluorescence [z-score]
TTAGGTTTTCTTTCCCTTTAGTGCTAG,2.26
GACGGACTGGGTATCGGGACGTGCTAG,-0.134
TTAGGTATCCTTATCCTTTCGTGCTAG,0.312
TTACATCTCAGTCTCGATTAGTGCTAG,1.64
GACGATATCGGGTTTCGGGACGTGCTA,2.14
CCATACTTCCCACTGGTCTTGTGCTAG,1.11
TTAGGTCTCCTTCTGCTTTAGTGCTAG,-0.0131
TTAGGTTTCGACTTTCGGTAAGTGCTA,11.3
TTAGGTTTCGGTTCGGGTTAGTGCTAG,13
TTCTGAATGCCCTTCCATCACGTGCTA,-0.402
GCAAGAACAGCTGGTGGGCAGTGCTAG,-0.843
AGCACTCCAGAGGCAGAGGCGTGCTAG,-0.999
